# Experimental data pooled from the literature.
# Compare with care: the assays were run in different laboratories. Numbers after ± are the reported error.
# RIPK1: Receptor-interacting serine/threonine-protein kinase 1 (RIPK1, Homo sapiens, UniProt Q13546)
# Sequence of UniProt Q13546 (whole entry, looked up): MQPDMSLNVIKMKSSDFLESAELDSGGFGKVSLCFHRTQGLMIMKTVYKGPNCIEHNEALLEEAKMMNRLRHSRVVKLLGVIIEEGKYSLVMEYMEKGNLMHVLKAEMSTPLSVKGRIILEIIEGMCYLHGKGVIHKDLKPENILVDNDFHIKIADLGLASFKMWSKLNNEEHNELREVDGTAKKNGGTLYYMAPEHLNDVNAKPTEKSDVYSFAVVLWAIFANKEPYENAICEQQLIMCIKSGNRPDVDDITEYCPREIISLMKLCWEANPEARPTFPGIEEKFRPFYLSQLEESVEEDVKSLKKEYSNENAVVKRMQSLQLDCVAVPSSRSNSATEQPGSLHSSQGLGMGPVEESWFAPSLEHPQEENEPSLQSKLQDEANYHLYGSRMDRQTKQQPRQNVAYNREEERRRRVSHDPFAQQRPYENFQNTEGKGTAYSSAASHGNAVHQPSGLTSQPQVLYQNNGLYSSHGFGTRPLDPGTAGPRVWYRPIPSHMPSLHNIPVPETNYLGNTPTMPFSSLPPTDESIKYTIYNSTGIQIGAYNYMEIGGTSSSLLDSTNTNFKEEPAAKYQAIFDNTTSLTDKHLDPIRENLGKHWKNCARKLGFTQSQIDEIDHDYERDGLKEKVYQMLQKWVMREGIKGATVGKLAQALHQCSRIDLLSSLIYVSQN
# MAOB: Amine oxidase [flavin-containing] B (MAOB, Homo sapiens, UniProt P27338)
# Sequence of UniProt P27338 (whole entry, looked up): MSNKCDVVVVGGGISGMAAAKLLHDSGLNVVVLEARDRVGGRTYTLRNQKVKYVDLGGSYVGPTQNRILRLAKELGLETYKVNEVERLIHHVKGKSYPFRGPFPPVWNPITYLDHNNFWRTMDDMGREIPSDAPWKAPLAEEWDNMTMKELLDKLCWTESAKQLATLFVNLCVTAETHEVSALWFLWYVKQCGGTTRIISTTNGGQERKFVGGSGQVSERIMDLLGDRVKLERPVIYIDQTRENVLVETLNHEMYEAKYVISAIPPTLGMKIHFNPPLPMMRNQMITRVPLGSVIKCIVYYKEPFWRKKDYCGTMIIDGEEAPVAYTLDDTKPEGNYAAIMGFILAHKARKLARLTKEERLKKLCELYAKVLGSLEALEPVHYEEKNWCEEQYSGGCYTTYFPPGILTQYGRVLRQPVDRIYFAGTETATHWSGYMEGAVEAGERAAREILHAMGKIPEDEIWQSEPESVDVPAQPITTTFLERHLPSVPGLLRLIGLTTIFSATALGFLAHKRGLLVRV
# ALOX5: Polyunsaturated fatty acid 5-lipoxygenase (ALOX5, Homo sapiens, UniProt P09917)
# Sequence of UniProt P09917 (whole entry, looked up): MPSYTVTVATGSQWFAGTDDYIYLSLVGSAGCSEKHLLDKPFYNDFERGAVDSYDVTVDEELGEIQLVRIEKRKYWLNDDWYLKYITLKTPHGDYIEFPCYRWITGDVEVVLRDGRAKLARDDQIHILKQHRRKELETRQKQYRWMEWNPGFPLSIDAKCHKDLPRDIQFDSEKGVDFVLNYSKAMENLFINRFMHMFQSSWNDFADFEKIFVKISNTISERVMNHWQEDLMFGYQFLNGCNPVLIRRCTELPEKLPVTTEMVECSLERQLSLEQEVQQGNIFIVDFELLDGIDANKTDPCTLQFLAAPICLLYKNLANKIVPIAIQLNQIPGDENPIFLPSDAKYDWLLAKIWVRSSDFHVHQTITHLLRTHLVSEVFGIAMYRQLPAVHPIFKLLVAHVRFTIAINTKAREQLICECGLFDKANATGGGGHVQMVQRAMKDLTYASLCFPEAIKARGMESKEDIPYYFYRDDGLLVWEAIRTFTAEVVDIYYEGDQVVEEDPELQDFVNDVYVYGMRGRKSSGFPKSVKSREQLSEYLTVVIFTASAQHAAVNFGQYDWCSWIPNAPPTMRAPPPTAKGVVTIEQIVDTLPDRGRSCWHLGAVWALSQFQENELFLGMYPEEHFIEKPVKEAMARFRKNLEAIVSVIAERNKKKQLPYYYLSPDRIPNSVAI
# Sequence of UniProt Q8R431 (whole entry, looked up): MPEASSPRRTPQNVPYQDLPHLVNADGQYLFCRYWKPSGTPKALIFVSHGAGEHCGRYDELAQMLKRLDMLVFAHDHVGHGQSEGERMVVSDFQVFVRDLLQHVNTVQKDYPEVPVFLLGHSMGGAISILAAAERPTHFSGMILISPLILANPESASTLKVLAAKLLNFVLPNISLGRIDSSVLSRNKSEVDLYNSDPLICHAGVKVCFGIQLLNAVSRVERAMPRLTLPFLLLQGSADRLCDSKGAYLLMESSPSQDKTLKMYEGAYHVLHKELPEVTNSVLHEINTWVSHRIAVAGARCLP
# Sequence of UniProt P23458 (whole entry, looked up): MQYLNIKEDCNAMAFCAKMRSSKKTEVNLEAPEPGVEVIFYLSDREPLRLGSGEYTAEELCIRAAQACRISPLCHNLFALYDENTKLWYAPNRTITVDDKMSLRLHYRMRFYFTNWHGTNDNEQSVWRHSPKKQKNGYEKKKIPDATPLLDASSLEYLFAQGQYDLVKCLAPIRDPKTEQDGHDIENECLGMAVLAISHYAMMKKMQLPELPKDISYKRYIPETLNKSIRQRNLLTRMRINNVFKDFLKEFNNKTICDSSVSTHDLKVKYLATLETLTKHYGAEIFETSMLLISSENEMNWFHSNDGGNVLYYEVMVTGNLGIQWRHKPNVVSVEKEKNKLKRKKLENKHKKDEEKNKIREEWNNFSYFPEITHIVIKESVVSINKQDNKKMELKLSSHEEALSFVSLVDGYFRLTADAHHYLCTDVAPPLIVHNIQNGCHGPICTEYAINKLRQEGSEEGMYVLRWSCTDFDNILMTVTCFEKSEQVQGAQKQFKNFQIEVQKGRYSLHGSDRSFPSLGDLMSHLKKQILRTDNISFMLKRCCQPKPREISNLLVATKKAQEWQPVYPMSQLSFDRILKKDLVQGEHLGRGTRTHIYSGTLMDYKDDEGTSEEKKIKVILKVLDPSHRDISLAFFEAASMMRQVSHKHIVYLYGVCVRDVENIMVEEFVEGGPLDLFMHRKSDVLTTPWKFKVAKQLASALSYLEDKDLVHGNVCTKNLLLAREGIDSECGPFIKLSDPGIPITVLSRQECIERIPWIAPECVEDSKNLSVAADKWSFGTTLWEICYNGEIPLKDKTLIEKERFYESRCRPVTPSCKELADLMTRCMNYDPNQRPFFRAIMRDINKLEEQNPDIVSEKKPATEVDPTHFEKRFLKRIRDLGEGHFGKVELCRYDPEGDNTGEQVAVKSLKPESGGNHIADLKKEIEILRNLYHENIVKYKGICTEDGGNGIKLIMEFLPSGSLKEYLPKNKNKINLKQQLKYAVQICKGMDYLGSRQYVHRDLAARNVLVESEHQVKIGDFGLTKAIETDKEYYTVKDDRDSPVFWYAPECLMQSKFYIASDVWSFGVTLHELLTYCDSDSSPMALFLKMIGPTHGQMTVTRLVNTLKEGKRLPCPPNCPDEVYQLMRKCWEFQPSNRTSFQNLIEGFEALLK
# Sequence of UniProt P26439 (whole entry, looked up): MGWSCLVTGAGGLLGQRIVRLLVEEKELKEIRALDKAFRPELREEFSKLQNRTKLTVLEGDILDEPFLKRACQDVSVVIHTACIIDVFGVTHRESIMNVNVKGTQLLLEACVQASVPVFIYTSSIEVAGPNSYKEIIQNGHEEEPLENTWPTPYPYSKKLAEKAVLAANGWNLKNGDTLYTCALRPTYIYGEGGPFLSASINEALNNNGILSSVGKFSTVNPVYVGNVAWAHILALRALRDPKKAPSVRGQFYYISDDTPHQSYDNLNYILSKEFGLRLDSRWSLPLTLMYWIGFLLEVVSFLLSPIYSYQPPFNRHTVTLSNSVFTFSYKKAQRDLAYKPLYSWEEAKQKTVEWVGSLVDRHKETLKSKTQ
# Sequence of UniProt O75530 (whole entry, looked up): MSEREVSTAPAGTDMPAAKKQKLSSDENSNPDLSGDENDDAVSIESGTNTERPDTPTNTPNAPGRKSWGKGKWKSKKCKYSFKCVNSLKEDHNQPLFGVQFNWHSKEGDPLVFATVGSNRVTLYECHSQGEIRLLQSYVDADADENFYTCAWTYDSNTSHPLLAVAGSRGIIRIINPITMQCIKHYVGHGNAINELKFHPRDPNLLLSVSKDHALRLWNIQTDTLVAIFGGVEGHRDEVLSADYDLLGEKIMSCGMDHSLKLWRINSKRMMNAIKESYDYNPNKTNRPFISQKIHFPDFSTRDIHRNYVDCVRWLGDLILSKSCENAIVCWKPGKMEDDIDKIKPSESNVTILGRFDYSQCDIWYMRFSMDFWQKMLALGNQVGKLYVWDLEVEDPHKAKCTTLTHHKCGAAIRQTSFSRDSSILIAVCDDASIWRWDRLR
# Sequence of UniProt Q15910 (whole entry, looked up): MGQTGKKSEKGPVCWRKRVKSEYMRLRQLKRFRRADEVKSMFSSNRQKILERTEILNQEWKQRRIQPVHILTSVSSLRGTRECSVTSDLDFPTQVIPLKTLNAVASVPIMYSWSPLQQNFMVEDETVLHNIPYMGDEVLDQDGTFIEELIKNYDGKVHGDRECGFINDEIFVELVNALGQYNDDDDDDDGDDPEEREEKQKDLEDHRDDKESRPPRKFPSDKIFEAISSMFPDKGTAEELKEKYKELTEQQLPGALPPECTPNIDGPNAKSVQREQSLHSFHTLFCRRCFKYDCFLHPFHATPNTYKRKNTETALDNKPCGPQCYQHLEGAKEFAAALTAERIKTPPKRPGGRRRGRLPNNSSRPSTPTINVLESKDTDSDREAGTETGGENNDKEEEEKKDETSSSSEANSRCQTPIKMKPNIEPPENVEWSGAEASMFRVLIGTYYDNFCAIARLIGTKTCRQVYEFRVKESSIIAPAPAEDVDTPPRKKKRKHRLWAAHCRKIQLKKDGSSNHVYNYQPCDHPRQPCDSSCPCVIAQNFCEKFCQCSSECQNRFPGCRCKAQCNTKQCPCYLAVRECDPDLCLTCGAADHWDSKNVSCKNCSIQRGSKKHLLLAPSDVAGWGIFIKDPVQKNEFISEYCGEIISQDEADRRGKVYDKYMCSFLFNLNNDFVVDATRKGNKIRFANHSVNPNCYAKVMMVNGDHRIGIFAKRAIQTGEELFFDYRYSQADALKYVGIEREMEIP
SMILES,target,assay,system,setting,how to read,remaining activity [%]
CC(C)(C)NC(=O)NC1CC=C(c2cc3c(Nc4cc5ncsc5cc4F)ncnc3s2)CC1 (racemic),RIPK1,enzyme activity,,1 µM,baseline: untreated,105 ± 6
C[C@H](NC(=O)[C@H](C)NC(=O)[C@@H](N)CCCCN)C(=O)N[C@@H](CCCNC(=N)N)C(=O)N[C@@H](CCCC[N+](C)(C)C)C(=O)N[C@@H](CO)C(=O)N[C@@H](C)C(=O)N1CCC[C@H]1C(=O)O,"Histone-lysine N-methyltransferase EZH2/Polycomb protein EED, with SUZ12 (EED/EZH2, Homo sapiens, UniProt O75530+Q15910)","PRC2 methyltransferase activity, [3H]-SAM scintillation proximity",,"concentration not given, with: 50 µM histone H3 peptide (21-44)",,577 ± 1.9
COc1cc(/C=C/C(=O)CC(=O)CCc2ccc(O)c(OC)c2)ccc1O,"HSD3B2 (Homo sapiens, UniProt P26439)",inhibitor,KGN homogenate,"100 µM, with: pregnenolone substrate",baseline: DMSO,≥ 50
O=C1Nc2ccc(Br)cc2/C1=N/N=C/c1cccc(OCc2ccccc2)c1,MAOB,"enzyme activity, inhibitor",,10 µM,,46.9
CC(C)C(=O)N1CCC=C(c2cc3c(Nc4cc5ncsc5cc4F)ncnc3s2)C1,RIPK1,enzyme activity,,1 µM,baseline: untreated,101 ± 4
O=C1CC(c2ccc(O)cc2)Oc2cc(O)ccc21 (racemic),ALOX5,product formation,activated human PMNL,"10 µM, with: A23187 plus arachidonic acid",baseline: control,89.2 ± 6.7
COc1ccc2c(c1)/C(=N/N=C/c1ccc(OCc3cccc(F)c3)cc1)C(=O)N2,MAOB,"enzyme activity, inhibitor",,10 µM,,50
Cc1c(O)cc(O)c2c1OC(c1ccc(O)cc1)CC2=O (stereo not drawn),ALOX5,product formation,activated human PMNL,"10 µM, with: A23187 plus arachidonic acid",baseline: control,65.7 ± 5.7
O=C1Nc2ccc(Br)cc2/C1=N/N=C/c1ccc(OCc2ccccc2)cc1,MAOB,"enzyme activity, inhibitor",,10 µM,,64.9
COc1cc2nnn(C(=O)N3COCC3(C)C)c2cc1OC,"Monoglyceride lipase (Rattus norvegicus, UniProt Q8R431)",inhibitor,rat cerebellum cytosol,100 µM,baseline: control,7 ± 1
CC1(C)CCN(Cc2ccc(C(=O)NC[C@]3(O)CCCN(c4cc(NCc5ccccc5)ncn4)C3)c(O)c2)CC1,"JAK1 (Homo sapiens, UniProt P23458)","enzyme activity, inhibitor, radiometric",,10 µM,,101
O=C(C1CC1)N1CCC=C(c2cc3c(Nc4cc5ncsc5cc4F)ncnc3s2)C1,RIPK1,enzyme activity,,1 µM,baseline: untreated,95 ± 2
O=C1Nc2ccc(F)cc2/C1=N/N=C/c1ccc(OCc2cccc(F)c2)cc1,MAOB,"enzyme activity, inhibitor",,10 µM,,24.5
O=C(NC1CC1)N1CCC=C(c2cc3c(Nc4cc5ncsc5cc4F)ncnc3s2)C1,RIPK1,enzyme activity,,1 µM,baseline: untreated,100 ± 3
Cc1ccc2c(c1)/C(=N/N=C/c1cccc(OCc3ccccc3)c1)C(=O)N2,MAOB,"enzyme activity, inhibitor",,10 µM,,39.1

# Excerpt of the above:
SMILES,target,assay,system,setting,how to read,remaining activity [%]
O=C(NC1CC1)N1CCC=C(c2cc3c(Nc4cc5ncsc5cc4F)ncnc3s2)C1,RIPK1,enzyme activity,,1 µM,baseline: untreated,100 ± 3
COc1cc2nnn(C(=O)N3COCC3(C)C)c2cc1OC,"Monoglyceride lipase (Rattus norvegicus, UniProt Q8R431)",inhibitor,rat cerebellum cytosol,100 µM,baseline: control,7 ± 1
